Published values of several laboratories.
Parts stem from different laboratories: compare values within a part only.

Sample 1 — effect on: enzyme activity; mode: inhibitor; concentration: 20 µM; setting: hit confirmation, no DTT
Target: Replicase polyprotein 1ab, main protease (rep, Severe acute respiratory syndrome coronavirus 2, UniProt P0DTD1)
| Compound | inhibition [%] |
| --- | --- |
| CC[C@]12C=CCN3CC[C@@]4(c5cc([C@@]6(C(=O)OC)C[C@@H]7C[C@@H](C(C)(F)F)C[N@](CCc8c6[nH]c6ccccc86)C7)c(OC)cc5N(C)[C@H]4[C@@](O)(C(=O)OC)[C@@H]1OC(C)=O)[C@@H]32 | 97.2 |
| O=C(O)C(O)Cc1ccc(O)c(O)c1 (centres unmarked) | 85.6 |
| Oc1cc2c(cc1O)CN(C(=S)NCCc1ccc(Cl)cc1)CCC2 | 52.5 |
| c1ccc2sc(SN3CCOCC3)nc2c1 | 99.8 |

Sample 2 — method: RNA Bind-n-Seq; form: RNA; medium: in vitro; concentration: 200 nM; setting: whole 134-nt RNA, ends assumed; added: 150 mM LiCl; baseline: input library; direction: higher = stronger binding; each molecule: 7-deaza-guanosine replaces G
Target: Fragile X messenger ribonucleoprotein 1, C-terminal low-complexity region (Fmr1, Mus musculus, UniProt P35922)
All sequences stand within: GGGAGUUCUACAGUCCGACGAUC … UGGAAUUCUCGGGUGUCAAGG
| Sequence | log2 enrichment |
| --- | --- |
| UGGGAGGUGGAUUUUGUUUAUUUUUUUAGCUCAUUUCCAGGGGUGGGAAUUCUUUUUUAAUAUGUGUCAUGAAUAAAGUUGUUUUUGAAA | 0.0907 |
| CACAGACAACACGCACCCACACAGACACAGAGGGAAGGGGUUGGGAUGGGGACAGGGUGCACAGCAGGGCGGGGCAGGACCCCAGCCCCU | 1.8 |
| CACAGACAACACGCACCCACACAGACAAAAAGGGAAGGGGUUGGGAUGGGGACAGGGUGCACAGCAGGGCGGGGUAGGACCCCAGCCCCU | 0.101 |
| CUCAAGUCCUGUGCUACACAUCGUAUGUACCGAAUCGGGUUUGGGAGGGUGGGAAAGUAUUAUGUUACGCCGUUCGGAUCUGCACUUCCA | -0.291 |
| UGGCAGGAAAGAGUUCCUAGAGAGAGAAGACAAAGACAGUCUGUGUUGCAAAAGAAGCCCAAGGCUGAAGAUUUAAGAACUGAAUGUGCA | -1.92 |
| UCCUCAAGUCCUGUGCUACACAUCGUAUGUACCGAAUCGGCGGCGGGCGGGAAAGUAUUAUGUUACGCCGUUCGGAUCUGCACUUCCAGC | 1.16 |
| ACCAUGCAGGUGGGCAUCUUUGGGAAGUGGGGCAAGGGGGGGAUAGGGAGGGGGGUAACACUUUGGGAACAGGUGUUCCCAGGUCGUUUC | 1.4 |
| CUGUGCUACACAUCGUAUGUACCGAAUCGGGGUUUUUUUGGUUUUUUUGGGUUUUUUUGGGAAAGUAUUAUGUUACGCCGUUCGGAUCUG | 0.0921 |

Sample 3 — cell line: HEK-293T/ACE2; concentration: concentration not given; time: 16 (unit not given); baseline: vehicle
| Structure (SMILES) | viability |
| --- | --- |
| CN1CCC(OC(c2ccccc2)c2ccccc2)CC1 | 107% |
| COC(=O)c1ccccc1O | 98.2% |
| CC(C)NCC(O)c1ccc(NS(C)(=O)=O)cc1 (centres unmarked) | 102% |

Sample 4 — mode: inhibitor; concentration: 20 µM
Target: Replicase polyprotein 1ab, nsp13 helicase (rep, Severe acute respiratory syndrome coronavirus 2, UniProt P0DTD1)
| Structure (SMILES) | inhibition |
| --- | --- |
| COc1cc(/C=C2\CCC/C(=C\c3ccc(O)c(OC)c3)C2=O)ccc1O | 17% |
| Cn1cc(-c2ccc3nnc(Sc4ccc5ncccc5c4)n3n2)cn1 | 8.56% |
| Cc1ncc(-c2csc(N=C(N)N)n2)[nH]1 | 0.49% |
| COc1cccc(N(C)C(=S)Oc2ccc3c(c2)CCCC3)n1 | -0.08% |
| C=CC(C)(O)CCC=C(C)C (centres unmarked) | 0.38% |
| COCC[n+]1c2c(n(Cc3cnccn3)c1C)C(=O)c1ccccc1C2=O | 17.9% |
| Oc1ccc(-c2nc(-c3ccc(F)cc3)c(-c3ccncc3)[nH]2)cc1 | -5.72% |
| CCCCN1C[C@H](O)[C@@H](O)[C@H](O)[C@H]1CO | 4.19% |
| CC(C)NCCN(C(C)C)S(=O)(=O)c1ccc(Cl)cc1Cl | 2.33% |
| O=C(CBr)N1CC([N+](=O)[O-])([N+](=O)[O-])C1 | 8.94% |
| CCC[N@+]12[C@H](O)[C@@H](CC)[C@@H]3C[C@H]1[C@@H]1N(C)c4ccccc4[C@]14C[C@H]2[C@H]3[C@H]4O | 4.74% |
| CN1CCN(c2ccc(OC(F)(F)F)c(Nc3ncc4c(n3)-c3c(c(C(N)=O)nn3CCO)CC4)c2)CC1 | -0.87% |
| Cc1ccccc1C(C(=O)NC1CCCCC1)N(C(=O)Cn1ccnc1C)c1cccc(F)c1 (centres unmarked) | 2.48% |
| C[C@H](CCC(=O)O)[C@H]1CC[C@H]2[C@@H]3[C@H](O)C[C@@H]4C[C@H](O)CC[C@]4(C)[C@H]3C[C@H](O)[C@]12C | -1.91% |
| NC[C@H](O)c1ccc(O)c(O)c1 | 7% |
| C=C[C@@H]1C[C@]1(NC(=O)[C@@H]1C[C@@H]2CN1C(=O)[C@H](C(C)(C)C)NC(=O)O[C@@H]1C[C@H]1CCCCCc1nc3ccc(OC)cc3nc1O2)C(=O)NS(=O)(=O)C1CC1 | 5.71% |
| CCN1CCN(Cc2ccc(-c3cc4c(N[C@H](C)c5ccccc5)ncnc4[nH]3)cc2)CC1 | 15.5% |
| CCN(CC)c1ccc(/C=N/NC(=O)c2ccc(O)cc2)cc1 | 5.99% |
| O=C(NC1CCOCC1)c1ccc(-c2cc(-c3c[nH]nc3-c3ccccn3)ccn2)cc1 | -6.03% |
| CCCCCCCCNC(=O)/C(C#N)=C/c1cn(CCCN(C)C)c2ccccc12 | 3.14% |
| N=C(N)NCCN1CCCCCCC1 | 7.36% |

Sample 5 — method: protein binding microarray; form: double-stranded DNA, one strand shown; medium: in vitro; concentration: not given; baseline: not given; direction: higher = stronger binding
Target: Histone acetyltransferase KAT6A, winged helix 1, GST fusion (KAT6A, Homo sapiens, UniProt Q92794, residues 1-85)
Setting: 8-mer, flanks averaged, mean of 2 arrays, mostly near background
Target sequence (chain): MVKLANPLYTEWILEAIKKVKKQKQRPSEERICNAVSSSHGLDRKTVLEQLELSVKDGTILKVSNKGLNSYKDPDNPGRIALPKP
| Sequence | E-score |
| --- | --- |
| CGAGATGC | 0.0298 |
| AGTGCGCA | 0.338 |
| CTCGAGAG | -0.0865 |
| ACGTGTGA | -0.227 |
| AAAATCCA | -0.314 |
| CAGCTCAC | -0.139 |
| ACCGCTGC | 0.248 |
| CCGTCGAC | 0.226 |
